# Measurements gathered from unrelated publications.
# Numbered parts are unrelated; each lists some results of a single study.

# Set 1 — method: universal PBM; form: double-stranded DNA, one strand shown; sample: in vitro; concentration: 600 nM; direction: higher = stronger binding
# Target: Sal-like protein 4, full length isoform A (SALL4, Homo sapiens, UniProt Q9UJQ4, residues 1-1053)
# UniProt Q9UJQ4, sequence (whole entry, looked up): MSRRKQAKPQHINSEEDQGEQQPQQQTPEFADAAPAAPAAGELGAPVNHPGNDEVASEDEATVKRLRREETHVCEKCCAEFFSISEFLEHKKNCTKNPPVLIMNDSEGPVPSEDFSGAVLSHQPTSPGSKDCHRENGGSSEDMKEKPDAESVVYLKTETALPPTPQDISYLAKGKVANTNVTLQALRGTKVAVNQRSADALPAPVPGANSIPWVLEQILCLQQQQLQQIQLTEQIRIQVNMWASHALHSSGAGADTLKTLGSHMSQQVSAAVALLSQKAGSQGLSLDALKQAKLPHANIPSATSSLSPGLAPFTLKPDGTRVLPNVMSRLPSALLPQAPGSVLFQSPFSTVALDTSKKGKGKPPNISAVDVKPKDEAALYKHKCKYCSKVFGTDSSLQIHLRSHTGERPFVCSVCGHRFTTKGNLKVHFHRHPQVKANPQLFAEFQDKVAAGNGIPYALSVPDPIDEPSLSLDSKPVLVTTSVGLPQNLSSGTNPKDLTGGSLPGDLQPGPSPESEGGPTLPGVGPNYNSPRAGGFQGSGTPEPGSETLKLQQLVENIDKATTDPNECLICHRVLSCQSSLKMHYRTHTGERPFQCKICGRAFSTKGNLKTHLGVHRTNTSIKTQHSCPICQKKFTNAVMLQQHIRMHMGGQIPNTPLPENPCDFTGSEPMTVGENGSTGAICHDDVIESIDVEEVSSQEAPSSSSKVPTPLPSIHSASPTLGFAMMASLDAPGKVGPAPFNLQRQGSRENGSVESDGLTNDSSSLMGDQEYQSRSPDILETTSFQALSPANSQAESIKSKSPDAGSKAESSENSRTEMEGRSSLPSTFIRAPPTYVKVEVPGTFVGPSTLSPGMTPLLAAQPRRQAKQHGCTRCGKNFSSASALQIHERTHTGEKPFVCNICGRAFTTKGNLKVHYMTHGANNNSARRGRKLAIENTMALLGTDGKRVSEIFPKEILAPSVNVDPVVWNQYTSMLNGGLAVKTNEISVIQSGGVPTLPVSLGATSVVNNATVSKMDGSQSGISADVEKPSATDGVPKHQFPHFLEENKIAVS
# Notes: 8-mer, flanks averaged, mean of replicates
Sequence,E-score
CCTCCGTA,-0.164
ATTTGGCA,0.107
ATGACTGG,-0.199
CATATAGG,0.246
ATGGAGAG,0.0991
ATCATAAA,0.407
AAGGTATG,0.104
CTCTGACA,0.0715
ATCGATAG,0.206
CCTGTCAA,-0.000515
AGAGGAAT,0.0232
AGGGGAGA,-0.213
CCGGCTGC,-0.394
CCCCTAGC,-0.289
ACACTGAA,0.203
GTTTTAGA,0.117
ACGCATTG,-0.046

# Set 2 — method: aptamer microarray, sandwich; form: DNA with 2'F-ANA; sample: in vitro; concentration: 200 nM; together with: Cy3 exosite-II aptamer, 400 nM; direction: higher = stronger binding; sequence: GGTTGGTGTGGTTGG
# Target: Prothrombin, mature alpha-thrombin (F2, Homo sapiens, UniProt P00734)
# Notes: whole 15-mer aptamer, many near background
Modification,mean fluorescence intensity [a.u.]
2'F-ANA at 5 6 8 12,203
2'F-ANA at 5 7 8 9 10 13 14,48.4
2'F-ANA at 4 9 11 13 15,173
2'F-ANA at 1 5 6 7 12 14,53.5
2'F-ANA at 2 3 5 7 10 11 13 14,55.7
2'F-ANA at 5 7 9 15,77.7
2'F-ANA at 1 4 5 6 7 12 13 15,77.2
2'F-ANA at 2 3 4 5 9 10 11 13 14,54.4
2'F-ANA at 2 4 5 6 8 12 14 15,50.5
2'F-ANA at 2 3 6 7 9 10 11,297
2'F-ANA at 4 5 7 8 10 11 12 14,46.4
2'F-ANA at 3 4 6 7 8 10 13,203
2'F-ANA at 2 3 5 6 7 9 11 12,152
2'F-ANA at 7 10 13 15,138
2'F-ANA at 1 4 5 7 8 9 10 11 12 13 14 15,54.4
2'F-ANA at 1 2 3 5 6 8 9 10 11 12 13 14,55.4
2'F-ANA at 1 2 3 4 5 8 9 11 12 13 15,70.2
2'F-ANA at 1 2 3 7 8 9,238
2'F-ANA at 1 2 5 6 9,74.3
2'F-ANA at 2 3 5 6 9 12,205
2'F-ANA at 1 4 5 7 8 9 12 13,73.6
2'F-ANA at 2 3 5 6 8 14 15,59
2'F-ANA at 1 2 4 6 7 9 10 12 14,46.9
2'F-ANA at 4 9 14,94.1
2'F-ANA at 1 2 3 4 5 7 8 10 12 15,51.3

# Set 3 — method: protein binding microarray; form: double-stranded DNA, one strand shown; sample: in vitro; concentration: not given; relative to: not given; direction: higher = stronger binding
# Target: Histone acetyltransferase KAT6A, winged helix 1, GST fusion (KAT6A, Homo sapiens, UniProt Q92794, residues 1-85)
# Notes: 8-mer, flanks averaged, mean of 2 arrays, mostly near background
# Target sequence (chain): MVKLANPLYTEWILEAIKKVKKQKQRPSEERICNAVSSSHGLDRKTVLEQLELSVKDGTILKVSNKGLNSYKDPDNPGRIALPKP
Sequence,E-score
ATCAGATA,-0.141
AGCATTTC,-0.128
CTAGAAGA,-0.224
ACATAGTC,0.0393
AAGCTGCG,0.0102
AGCCGAGA,0.0433
AATGCCCA,-0.148
AACAACTA,-0.036
TCAACTCA,-0.296
AGTAGTAT,-0.112
AATGGCGC,0.18
GTGAATCA,-0.148
AAAGTTGA,-0.136
ATCGTCAC,-0.171
AAACCTAG,-0.109
AATGATTC,-0.085
GACATTCC,-0.0412
ATACTAGC,0.0341
GAAGACGA,-0.038
ATAGGTCG,0.0539
CACACATC,-0.26
ACGACGAG,-0.295
GCTATAGC,0.0519
AGGGTGGA,-0.27
CCTCGTCG,0.0657

# Set 4 — method: RNA Bind-n-Seq; form: RNA; sample: in vitro; concentration: 200 nM; notes: whole 134-nt RNA, ends assumed; together with: 150 mM KCl; relative to: input library; direction: higher = stronger binding
# Target: Fragile X messenger ribonucleoprotein 1, C-terminal low-complexity region (Fmr1, Mus musculus, UniProt P35922)
# Constant ends, left off below: GGGAGUUCUACAGUCCGACGAUC … UGGAAUUCUCGGGUGUCAAGG
Sequence,log2 enrichment
AGUCCUGUGCUACACAUCGUAUGUACCGAAUCGGGUUUUUUUGGGAGGGAAAAAGGGAAAGUAUUAUGUUACGCCGUUCGGAUCUGCACU,0.361
UGGCCCUGGUGGCAUGCGGGGAGGAAGAGGUGGCCUCAUGGAUCGUGGUGGUCCCGGUGGAAUGUUCAGAGGUGGUCGUGGUGGAGACAG,0.214
UCCUGUGCUACACAUCGUAUGUACCGAAUCGGAAAAAAGGGGAAAAAAGGGGAAAAAAGGAAAGUAUUAUGUUACGCCGUUCGGAUCUGC,-0.459
AGUCCUGUGCUACACAUCGUAUGUACCGAAUCGGGUGGGAAAAAAAGGGUUUUUGGGAAAGUAUUAUGUUACGCCGUUCGGAUCUGCACU,0.398
AGUCCUGUGCUACACAUCGUAUGUACCGAAUCGGAAAAAGGGAAAAAGGAAAAAGGGGAAAGUAUUAUGUUACGCCGUUCGGAUCUGCAC,-0.328
CAAGUCCUGUGCUACACAUCGUAUGUACCGAAUCGGGAAAAGGAAAAGGAAAAGGAAAGUAUUAUGUUACGCCGUUCGGAUCUGCACUUC,-0.643
GUCCUGUGCUACACAUCGUAUGUACCGAAUCGGUUUUUUUGGUUUUUGGUUUUUUUGGAAAGUAUUAUGUUACGCCGUUCGGAUCUGCAC,-0.742
UCCUCAAGUCCUGUGCUACACAUCGUAUGUACCGAAUCGGGGUGGUGGUGGAAAGUAUUAUGUUACGCCGUUCGGAUCUGCACUUCCAGC,-0.0102
ACCAUGCAGGUGGGCAUCUUUGGGAAGUGGGGCAAGGGGGGGAUAGGGAGGGGGGUAACCCUUUGGGAACAGGUGGUCCCAGGUCGUUUC,0.673
UAACUUUAGAGGAGAAUCUGAUGGAUAUGGCAGUGGACGUGGAUUUGGGGAUGGCUAUAAUGGGUAUGGAGGAGGACCUGGAGGUGGCAA,0.317
ACCAUGCAGGUGGGCAUCUUUGGGAAGCGGGGCAAGGGGGGGAUAGGGAGGGGGGUAACACUUUGGGAACAGGUGGUCCCAGGUCGUUUC,0.942
AGUCCUGUGCUACACAUCGUAUGUACCGAAUCAAAUUUAAACCCCCCCAAACCCAAAAAAGUAUUAUGUUACGCCGUUCGGAUCUGCACU,-0.123
UGUGCUACACAUCGUAUGUACCGAAUCGGGGAAAAAAAGGGGAAAAAAAGGGAAAAAAAGGGGAAAGUAUUAUGUUACGCCGUUCGGAUC,-0.0827

# Set 5 — method: competition protein-binding microarray; form: double-stranded DNA, one strand shown; sample: in vitro; concentration: 2 µM; together with: Cbf1 competitor, 0.05 µM; direction: higher = stronger binding; constant ends, left off below: … GTCTTGATTCGCTTGACGCTGCTG
# Target: Phosphate system positive regulatory protein PHO4, full length, GST-tagged (PHO4, Saccharomyces cerevisiae, UniProt P07270, residues 1-312)
# Notes: whole 60-bp probe, lowest competitor level
# Residues (chain): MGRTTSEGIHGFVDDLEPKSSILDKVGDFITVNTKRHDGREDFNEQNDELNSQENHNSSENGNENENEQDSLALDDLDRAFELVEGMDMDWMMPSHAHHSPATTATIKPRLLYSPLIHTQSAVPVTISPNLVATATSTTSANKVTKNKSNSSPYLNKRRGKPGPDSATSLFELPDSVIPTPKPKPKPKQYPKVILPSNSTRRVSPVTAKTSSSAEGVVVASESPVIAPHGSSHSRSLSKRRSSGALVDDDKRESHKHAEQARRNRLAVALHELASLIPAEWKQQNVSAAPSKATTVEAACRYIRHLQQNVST
Sequence,fluorescence intensity [a.u.]
AGCGGGGTAACCCATCACGTGGGTAGCCATTTTTCC,16200
AGTCGACTGAGGCGGAACGTGTGGAAGGGAAGCAGG,11000
CGTCCTAGTGATTGGCCTGTGGGTGCCATGAGGAAG,6480
AAAGCGGTAATTTGCGATGTGGGTGCAGATATCTAT,4470
CAATCTCTTGAAGGCCATGTGTAGTGCAACCGGCTT,7970
AAATTACTAAGTTTTCACGTGCGTTACCCCGTATGA,16900
TGTGGCTACGCTGGTCACGTGTTAGCAGAAGTCTTA,16000
CTAACGAAGGTTTGAGTGGTGGGTGACAAGCCAAGT,4440
GCAAACTTGTTATTGCACGTTAAGTTTTGGGCTCAA,6110
GGACAGATAGATCGGCACGTGTTGAGCCAGTTGTTC,19500
CTTTCCCGATCTTGCTATGTGGGTGTAGCACATTTG,5250
CTTTCCCGATCTTTTCACGTGGTTTTAGCACATTTG,11800
CTTAATGGACTAAAGCACGTGACTCGTAAAACCCAT,16000
CCAAACATTGTTCACCACGATGTTGTTCCAATGTTG,11000
ACTAATTAAGGTTCTCACGTGGAACTTCCGTCAATG,15000
AAGACGAAAGGAGTGCAGGTGATGACAACCTCAGTG,5780
TAGTATCAAAGTAGGCATGTGGGTTGATACCAACGA,11000
TCAGCACCCTTTGGACTCGTGATGGCGTTGAAAGGT,7590
ATTGTTTGGCTTCGTCACGTGGGTAAGTGCCGGAGA,15400
CTTTCCCGATCTTAGCACGTGTTTTTAGCACATTTG,17100

# For quick reference, copied from above (set 1):
Sequence,E-score
ACACTGAA,0.203
CCTGTCAA,-0.000515
CATATAGG,0.246
GTTTTAGA,0.117
AGGGGAGA,-0.213
CCGGCTGC,-0.394
CCCCTAGC,-0.289
ATCGATAG,0.206
ATGGAGAG,0.0991
ATGACTGG,-0.199
ATCATAAA,0.407
CCTCCGTA,-0.164
CTCTGACA,0.0715
AAGGTATG,0.104
AGAGGAAT,0.0232
